Results gathered from unrelated publications.
Each numbered part is a random draw from the data of one study; scales do not carry over between parts. Substitutions count along the parent as printed.

Series 1
Target: RING finger protein unkempt homolog, zinc fingers 1-6, GST-SBP tag (UNK, Homo sapiens, UniProt Q9C0B0, residues 30-357)
Sequence of UniProt Q9C0B0 (30-357, looked up): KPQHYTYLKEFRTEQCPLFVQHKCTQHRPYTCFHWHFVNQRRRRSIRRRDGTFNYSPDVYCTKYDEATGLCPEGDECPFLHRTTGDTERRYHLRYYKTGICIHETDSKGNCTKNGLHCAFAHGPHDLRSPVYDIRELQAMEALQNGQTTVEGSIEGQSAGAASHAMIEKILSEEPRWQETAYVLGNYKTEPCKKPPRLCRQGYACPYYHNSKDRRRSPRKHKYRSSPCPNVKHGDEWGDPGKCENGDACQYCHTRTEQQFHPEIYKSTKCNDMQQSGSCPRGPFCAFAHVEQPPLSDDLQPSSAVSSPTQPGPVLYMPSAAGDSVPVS
Technique: RNA Bind-n-Seq
Form: RNA
Medium: in vitro
Tested at: not given
Setting: RNA with constant flanks, human and mouse sites, ends assumed
Relative to: input RNA pool
Direction: higher = stronger binding
All sequences stand within: GGGAGUUCUACAGUCCGACGAUC … CAACAGAGGAUUGAGCAUCA
Oligonucleotide | bound/input enrichment
UUUCCACUUGAUGUCAACACGCAGAAGGGGGUGAAAGGGACGCGUGACAGAUUCAGAAAUUAGCACAUUUGUGAAUGCUCGAUGCCCUGUGAGCUUGAGAAGAGGGAUCCAGAGUGGUGA | 1.75 ratio
AACAAAAAUCAAGAGAAUGUUUCUCAUCUCUCAGUUUCUUCUGCUUCACCAACAUCAUCUGUAGCAUCAGCUGCAGGAAGCAUAACAAGCUCUAGUCUGCAGAAAUCUCCUACAUUGCUC | 0.144 ratio
GACGCUAGUGAUGGGACAGUACGACUUCGUGGACUACCAUUUGGUUGCAGCAAAGAGGAAAUAGUUCAGUUCUUUCAAGGGUUGGAAAUCGUGCCAAAUGGGAUAACAUUGACGAUGGAC | 0.261 ratio
UCUGACUGAAUGGAACAAGAUGGCUGGUGCUCUCAGGAGUUAACACCUCAGUGUGGUAGUAUUGAUUUGGUAAUUGUUAAAGAUGGGUUAUGUAGUUCGAUAAGCCAUUUCUUGCUGACG | 0.713 ratio
GUUCAGAAGAGGUUUGGCUUUCCAGAGGGCAGUGUAGAGCUUUAUGCUGAAAAGGUGGCCACUAGAGGUCUGUGUGCCAUUGCCCAGGCAGAGUCUCUGCGUUACAAACUCCUAGGAGGG | 0.202 ratio
GUAGCCCUUGCAGCAUGGCUGACCAACUGACUGAAGAGCAGAUUGCAGAGUUCAAAGAAGCUUUCUCACUAUUUGACAAGGACGGGGAUGGGACAAUAACAACAAAGGAGCUGGGGACAG | 0.405 ratio
AAAGCCUUCAUUAAACUUCCUGACAACCAUCACAUCAGCAACGUGACUGGCUAUCUAACAGUUCUACACCAGUUUUUAAAGGUGGACAGUUUUCUGCCUGCGACUGGAGUCACUUAUAAA | 0.132 ratio
UGUGUGAUGCUUGUCUCUAAUUUGCCUAAUAAAGGAUAUUCUGUAGAAGAAGUUUAUGACUUAGCAAAACCAUUUGGUGGUUUAAAGGAUAUCUUGAUUUUAUCAUCUCAUAAAAAGGCA | 0.434 ratio
GGGCACUGCAGCGUUGGAACGUGAGCCUCGGAUUUCCUGGCCCCUCUACUGUAAAUGUGCCUUAGCCUAAGCCUCCCAUCCUGUGUUAGCGUUGCCUGGUGCGGGGCAGGGCCUAACAAG | 0.185 ratio
GACCCAGAAAAUAAUCGGGGACAAGAAUCCUUUCCUAGGACUGCUGGACAAGAGGAUCGUAGUCUAAAAAUUAUCAAAAGAACAAAGAAACCCGACCUGCAGAUCUAUCAGCCUGGACGA | 1.02 ratio
CCCUUAACUGGGAAGUACCUGCCACGUAGGGCAUUUCUGCUGCCUAUUUCCAGCCAGCGGCUGCAUGGUUUGAAGUUCCUCCGUUGUGGUCAGAGGAACUCUGGUGUUUGGUUCCCUGCU | 0.151 ratio

Series 2
Target: CREB3L3, bZIP domain (human)
Technique: DHFR protein complementation
Medium: yeast
Setting: single substitutions, most at no-binding floor
Relative to: wild-type JUN-FOS pair
Direction: higher = stronger binding
Starting sequence: JUN, bZIP domain (human); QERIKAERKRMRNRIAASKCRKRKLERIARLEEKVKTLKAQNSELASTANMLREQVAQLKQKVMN; partner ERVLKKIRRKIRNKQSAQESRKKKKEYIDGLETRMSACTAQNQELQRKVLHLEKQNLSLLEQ
Substitution | binding fitness [natural log]
L31C | -1.41
A49R | -1.38
R53H | -1.58
S47D | -1.54
K34A | -1.5
N42H | -1.43
M51H | -1.14
N42E | -1.43
E54L | -1.48
I28G | -1.34
K36T | -1.43
S47L | -1.47
L45M | -1.49

Series 3
Target: CCNA2, cyclin fold, Cln2 fusion (human)
Technique: yeast growth competition, sequencing
Medium: yeast
Setting: strong parent motif
Relative to: not given
Direction: higher = stronger binding
Starting sequence: PKMYT1 docking peptide (human); SFEPRNLLSLFED
Substitution | normalised enrichment score
SFEPINLLSLFED [R5I] | 0.98
SFEPRNLLSLFEA [D13A] | 2.98
SFEPRNLLSLFMD [E12M] | 1.47
SFEPRNLGSLFED [L8G] | 0.364
SFEPRNILSLFED [L7I] | 0.236
SGEPRNLLSLFED [F2G] | 0.392
SFEPRILLSLFED [N6I] | 0.336
SFEPRNLLSLFKD [E12K] | 2.32
SFEPRNLLSGFED [L10G] | 0.121
SFEPRFLLSLFED [N6F] | 0.0312
SFEPRNSLSLFED [L7S] | -0.967
SFEPRDLLSLFED [N6D] | -0.0807

Mixed results
Substance | target | assay | test system | conditions | how to read | measurement | value
PhoQ, residues 284 288 289 292 302 303 AANNSF | PhoP, residues 12 14 15 18 19 NYFRM (Escherichia coli, UniProt P23836) | Sort-seq, measured: YFP reporter | E. coli | PhoQ-PhoP variant library, added: 10 µM Mg2+ | relative to: high Mg2+ state, higher = stronger signaling | fold induction | 1.8

Some of these lines once more (series 3):
Substitution | normalised enrichment score
SFEPRNLGSLFED [L8G] | 0.364
SFEPRFLLSLFED [N6F] | 0.0312
SFEPRNLLSLFKD [E12K] | 2.32
SFEPRDLLSLFED [N6D] | -0.0807
